{"data": "Published values from different studies", "note": "A part holds a random share of what one study measured. Changes are numbered by the printed parent chain."}
{"data": "Series 1", "target": "RING finger protein unkempt homolog, zinc fingers 1-6, GST-SBP tag (UNK, Homo sapiens, UniProt Q9C0B0, residues 30-357)", "technique": "RNA Bind-n-Seq", "molecule type": "RNA", "medium": "in vitro", "tested at": "not given", "notes": "RNA with constant flanks, human and mouse sites, ends assumed", "baseline": "input RNA pool", "reading": "higher = stronger binding", "constant ends, left off below": "GGGAGUUCUACAGUCCGACGAUC … CAACAGAGGAUUGAGCAUCA", "Construct (chain)": "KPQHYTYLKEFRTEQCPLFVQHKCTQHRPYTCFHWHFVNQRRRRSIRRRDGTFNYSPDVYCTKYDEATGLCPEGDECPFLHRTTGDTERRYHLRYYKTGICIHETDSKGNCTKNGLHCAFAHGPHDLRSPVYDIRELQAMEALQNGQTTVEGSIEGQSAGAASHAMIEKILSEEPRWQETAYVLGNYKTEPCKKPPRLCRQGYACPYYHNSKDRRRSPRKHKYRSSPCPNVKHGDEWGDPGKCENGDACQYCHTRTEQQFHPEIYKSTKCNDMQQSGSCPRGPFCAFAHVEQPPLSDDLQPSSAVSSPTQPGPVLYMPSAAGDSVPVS"}
{"Oligonucleotide": "GCCAUCUGGGGUGUGGUGUGGUAUGUGGGAAGAAGUUCAGAGGAACCGUUGGAAACGACGUUAGGCAUUUUACCUUUUCAGUAACAUUUUAUACAUCUACUUGUCAAUGUAUUUGAGACA", "bound/input enrichment [ratio]": 3.06}
{"Oligonucleotide": "UCUGCCAUUAAAGGACUCAAACCUAAUGCAAUUUACCUUUUCCUUGUGAGGGCAGCUAAUGCAUAUGGAAUUAGUGAUCCAAGCCAAAUAUCAGAUCCAGUGAAAACACAAGAUGUCCUA", "bound/input enrichment [ratio]": 0.181}
{"Oligonucleotide": "AACAAUUUAUCUUCAGUCACUAAUAUUAAUGUACAAAAGAUGUCUCAGCUUCUUUCUGUGUACCUAGAGGAAAACAAGCUAACUGAGCUGCCGGAAAAGUGUCUAUAUGGACUGAGCAAC", "bound/input enrichment [ratio]": 0.986}
{"Oligonucleotide": "GCAAAAGUUGCACAGAAGUCUUACGGAAAUGAAAAACGAUUUUUUUGCCCUCCUCCUUGUGUGUAUCUUAUGGGCAGUGGUUGGAAGAAAAAAAAAGAGCAAAUGGAACGAGAUGGAUGU", "bound/input enrichment [ratio]": 0.266}
{"Oligonucleotide": "AGGAAACAGAUCAAUAAUAUAUUUUAUAGGUUUAUCUAUGAGACAGAGCAUCACAAUGGCAUAGCGGAGUUACUGGAGAUCCUGGGAAGUAUAAUUAAUGGAUUUGCCUUACCACUGAAG", "bound/input enrichment [ratio]": 1.22}
{"Oligonucleotide": "ACUUUUCCAGUAUUUUAGUGGACCCUGAAAUGUGUGUGAUGUGACAUUUGUUAUUUUCAUUAGCAAAAAAAAGAGUUGUAUGAUCUGUGCCUUUUUUAUAUCUUGGCAGGUAGGAAUAUU", "bound/input enrichment [ratio]": 0.625}
{"Oligonucleotide": "GUCAUGUGACAACUCAGCUCACAUCACCAGCUCACCUCUGGUAGCCAUAGCAGCCCCUGCUUCAGCCCCACCGCACCCCUCCAGGGGGCCUGCCUUUCCCUGACACUUUUGGGGUCUGCC", "bound/input enrichment [ratio]": 0.189}
{"Oligonucleotide": "GAACCACCUUCGAAUGAAACACCUUCCUCCACAGAAACAUCUGCUAUUCCUGAGGAGGAAAUAGACUGGAUAGAGAAACAUUGUGUUAAGAUAAACAACGAUCUUCUAAUUUCCAAGGUC", "bound/input enrichment [ratio]": 0.197}
{"Oligonucleotide": "GGCUAUACAUCUGCUAAUUUUUCUGGGAGAAUGCCAUGCAUUGAGGUUGGCGAUAGUAUUGUUCACAAAGCCAGAGAGACCUUGGAACGAGCUAUUAAACUGGUGAAUGAUACCAAGAAA", "bound/input enrichment [ratio]": 0.208}
{"Oligonucleotide": "CAGAUCAGUAAGCAAGGCCUUUCUGGGGCAGUGGUAGACCUAACCAGAUCAUCUGAACAUAUCCAGUUUUCAGUGGAAGAGCUUAAAAACUUGUUCACACUACAUGAAAGUUCACAUUGU", "bound/input enrichment [ratio]": 0.0849}
{"Oligonucleotide": "AGCCUUCGAGGAAGAGGCCCUCCUCCUUCUUGGGCUUCUGAACCUGAACGCCCAUCCAUCCUUAGUGCAUCCGAACUGAAGGAGCUCGAUAAAUUUGAUAACCUAGAUGCUGAAGCAGAU", "bound/input enrichment [ratio]": 0.338}
{"data": "Series 2", "target": "ABI1, truncated, D143A, DHFR fusion (Arabidopsis thaliana)", "technique": "DHFR PCA, deep sequencing", "medium": "yeast", "notes": "methotrexate growth selection, single substitutions", "with": "(+)-ABA 200 µM", "baseline": "wild-type fitted maximum", "reading": "higher = stronger binding", "starting sequence": "PYL1, truncated, DHFR fusion (Arabidopsis thaliana); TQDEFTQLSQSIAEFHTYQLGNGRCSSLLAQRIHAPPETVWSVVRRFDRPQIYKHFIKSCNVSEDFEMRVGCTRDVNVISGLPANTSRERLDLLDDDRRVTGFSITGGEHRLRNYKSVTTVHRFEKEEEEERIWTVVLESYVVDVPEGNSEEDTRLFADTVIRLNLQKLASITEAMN; partner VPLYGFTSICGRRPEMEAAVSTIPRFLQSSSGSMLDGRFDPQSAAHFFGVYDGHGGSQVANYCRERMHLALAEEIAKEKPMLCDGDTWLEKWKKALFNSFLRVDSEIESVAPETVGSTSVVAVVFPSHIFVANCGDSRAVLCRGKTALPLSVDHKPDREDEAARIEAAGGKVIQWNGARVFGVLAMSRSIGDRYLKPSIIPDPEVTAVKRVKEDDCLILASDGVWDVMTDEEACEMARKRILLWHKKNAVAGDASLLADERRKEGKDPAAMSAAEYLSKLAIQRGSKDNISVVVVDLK"}
{"Substitution": "E129T", "relative binding score [%]": 98.7}
{"Substitution": "S27H", "relative binding score [%]": 93.8}
{"Substitution": "I52R", "relative binding score [%]": 98.7}
{"Substitution": "N85P", "relative binding score [%]": 63.6}
{"Substitution": "T39S", "relative binding score [%]": 93.1}
{"Substitution": "F15N", "relative binding score [%]": 84.6}
{"Substitution": "F157I", "relative binding score [%]": 82.2}
{"Substitution": "E151L", "relative binding score [%]": 93}
{"Substitution": "N149L", "relative binding score [%]": 35.3}
{"Substitution": "D75W", "relative binding score [%]": 105}
{"Substitution": "T119W", "relative binding score [%]": -0.698}
{"Substitution": "N77M", "relative binding score [%]": 103}
{"Substitution": "A30V", "relative binding score [%]": 99.9}
{"Substitution": "T135A", "relative binding score [%]": 85.5}
{"Substitution": "K54G", "relative binding score [%]": -0.313}
{"Substitution": "S26M", "relative binding score [%]": 90.6}
{"Substitution": "G102S", "relative binding score [%]": 108}
{"Substitution": "T135E", "relative binding score [%]": -3.78}
{"Substitution": "D144C", "relative binding score [%]": 73}
{"Substitution": "R45C", "relative binding score [%]": 61.7}
{"Substitution": "E127F", "relative binding score [%]": 97.3}
{"Substitution": "L20K", "relative binding score [%]": 102}
{"data": "Series 3", "target": "CCNF, cyclin fold, Cln2 fusion (human)", "technique": "yeast growth competition, sequencing", "medium": "yeast", "notes": "strong parent motif", "baseline": "not given", "reading": "higher = stronger binding", "starting sequence": "ASZ1 docking peptide (human); GFGFLLFICKLTF"}
{"Substitution": "F13A", "normalised enrichment score": 2.32}
{"Substitution": "I8A", "normalised enrichment score": 1.67}
{"Substitution": "L5A", "normalised enrichment score": 2.32}
{"Substitution": "T12A", "normalised enrichment score": 2.35}
{"Substitution": "G3A", "normalised enrichment score": 2.53}
{"Substitution": "F4A", "normalised enrichment score": 1.81}
{"data": "Series 4", "target": "RNA binding protein fox-1 homolog 2, RRM domain, GST-SBP tag (RBFOX2, Homo sapiens, UniProt O43251-10, residues 100-194)", "technique": "RNA Bind-n-Seq", "molecule type": "RNA", "medium": "in vitro", "tested at": "365 nM", "notes": "natural RNA segment, single round, ends assumed", "baseline": "no-protein control", "reading": "higher = stronger binding", "constant ends, left off below": "GGGAGUUCUACAGUCCGACGAUC … UGGAAUUCUCGGGUGCCAA", "Target sequence (chain)": "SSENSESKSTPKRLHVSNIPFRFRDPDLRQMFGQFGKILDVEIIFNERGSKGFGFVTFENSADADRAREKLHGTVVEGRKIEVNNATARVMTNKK"}
{"Oligonucleotide": "CGGGACCCAUAGCACACCCCUUAGCGCUUGCCUAGGUUGCUGAAAACAGGGAGGCACCUGGUAUCUCGAGUGCCUGCAGUUGCAAGUAUGUUUACACCUGGUGUCCAAUU", "RBNS enrichment (R)": 0.276}
{"Oligonucleotide": "CUUUAAAAAAAUUUUCUGCAUAGGUUAUAUCCCAGACCACUUAAAUCAGAAUAUCUUGGAUGGAACCCAGACAUCAGAUUAUUGUAUUUUCCCCCAUAAUUUAAAGUUCA", "RBNS enrichment (R)": 0.775}
{"Oligonucleotide": "UUGCACUACACUCACUCCGUGCUGCAAGUCCAGGGAUACUGUCUGUGGCCACUGAAGUCUCAGGUGCAGAUGGGUUCUCCCGGGAACCCAGGGUUGGAUCCAUAAGGCUU", "RBNS enrichment (R)": 0.258}
{"Oligonucleotide": "AAAAGGGAACCCAAGCAGUAGAGAGCGAUAUUGGAGUCUUUUGUUCAUUCAAAUCUUGGAUUUUUUUUUUUCCCUAAGAGAUUCUCUUUUUAGGGGGAAUGGGAAACGGA", "RBNS enrichment (R)": 0.452}
{"Oligonucleotide": "UUGUGGGCCUUGUUCCCUUUGAAGUGCUAAAUUCAUUUUGCCUAAUAAUACUACUUCUCUUUCCUUAUCUGAAUCUCUAACACCUCCAUUAGAAAAGUAGAGUUUGGAGA", "RBNS enrichment (R)": 0.639}
{"Oligonucleotide": "CAGGAUGGCAACAGAUUGGAUGUGCUAUCUCAGUGCCUGCAGGUCUCUCUGCUCGAGGCAGCAGGGGGCGCUUUGCAGUAUAGUUGAGGAAAAUGACCGCUCCUUGACCA", "RBNS enrichment (R)": 0.313}
{"Oligonucleotide": "GCAGGCAGAAUGUGCAUACAUGUUUUCAUGAGUGUCCUUUGGGUGCUGUUUCUUUUAAAUCCUCUGUGCACAGGGCUCUGGCCUUUAGUAAACUGUUUUUCUGUCUUACG", "RBNS enrichment (R)": 0.271}
{"Oligonucleotide": "UAUGAUCAGCUCCAGCUACCUGGGCAGUUGUGGUGGGGUGGAUGGGAAGGCCCACAGCCCAAGGGAUCCAUAAUAAUAAUUGCUUGGCCAGCCAUGUGGCCUGCUGGCGU", "RBNS enrichment (R)": 0.711}
{"Oligonucleotide": "UGUCUUAAUGCUGAGAAGCAGCAGCUUUGGGGUUGAAUUUACUUGAAUGGUUUAAAAAGAUUGCAUUGUUACAAAGCUAGAAAAAAUUUAUGUAUGAAAAAUGAUCCUAG", "RBNS enrichment (R)": 3.13}
{"Oligonucleotide": "AGCCCAUAGGUCUCAGAGAGUUAAUAGGAGUAUUUUUGGGCUAUUGCAUAAGGAGCCACUGCUGCCACCACUUUUGGAUUUUAUGGGAGGCUCCUUCAUCGAAUGCUAAA", "RBNS enrichment (R)": 1.18}
{"Oligonucleotide": "UUAUGAUCAGAGGCAGGAUGUCUGUGAGAUGGUUAGCUAGAGUUAGCAGUGUCCGGGGAGAGUGGCUUUAGACCAGUCAGUACCUUGCUCUUUGUGCAUGGUGCAUGUCA", "RBNS enrichment (R)": 1.21}
{"Oligonucleotide": "GGUUUCUUCUAAUCAAGCUUCCACCCUGCAAUGGCUGUCGUGCCAUCUUCCUUCUGUGUUUUACUCGGCUCAUUGCUUCUCUGGAGACAAAUGCAAUGCUUCCUACCCCC", "RBNS enrichment (R)": 0.467}
{"note": "A few entries again (series 2):"}
{"Substitution": "G102S", "relative binding score [%]": 108}
{"Substitution": "T39S", "relative binding score [%]": 93.1}
{"Substitution": "T135E", "relative binding score [%]": -3.78}
{"Substitution": "N149L", "relative binding score [%]": 35.3}
{"Substitution": "F15N", "relative binding score [%]": 84.6}
{"Substitution": "N77M", "relative binding score [%]": 103}
{"Substitution": "L20K", "relative binding score [%]": 102}
